Results gathered from unrelated publications.
Every numbered part comes from another study and shows a few of its results, in no order.

Block 1
Target: Histone acetyltransferase KAT6A, winged helix 2, GST fusion (KAT6A, Homo sapiens, UniProt Q92794, residues 85-181)
Method: protein binding microarray
Molecule type: double-stranded DNA, one strand shown
Matrix: in vitro
Concentration: not given
Notes: 8-mer, flanks averaged, mean of 2 arrays, mostly near background
Baseline: not given
Reading: higher = stronger binding
Target sequence (chain): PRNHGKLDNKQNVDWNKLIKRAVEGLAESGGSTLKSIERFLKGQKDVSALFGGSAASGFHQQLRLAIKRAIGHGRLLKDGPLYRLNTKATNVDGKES
`TGAAAGAA` has an E-score of 0.0768.
`AATAATGT` has an E-score of 0.0272.
The E-score of `GCGGTTCA` is reported as 0.011.
The E-score of `AAGCTTAA` is reported as 0.073.

Block 2
Target: PABPC1L2, full length, GST fusion (mouse, UniProt A0ABA7IW68)
Method: RNAcompete
Molecule type: RNA
Matrix: in vitro
Concentration: 20 nM
Notes: 7-mer, probes averaged, single round
Baseline: mean of 7-mers
Reading: higher = stronger binding
Construct (chain): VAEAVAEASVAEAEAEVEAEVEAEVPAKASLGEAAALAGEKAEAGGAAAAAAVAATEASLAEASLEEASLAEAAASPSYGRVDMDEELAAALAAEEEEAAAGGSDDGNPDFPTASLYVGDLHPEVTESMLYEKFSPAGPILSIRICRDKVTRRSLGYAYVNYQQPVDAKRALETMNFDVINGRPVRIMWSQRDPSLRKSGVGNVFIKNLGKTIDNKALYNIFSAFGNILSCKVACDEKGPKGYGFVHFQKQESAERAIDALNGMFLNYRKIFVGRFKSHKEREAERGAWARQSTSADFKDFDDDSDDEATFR
`CCGUGUG` has a 7-mer Z-score of -0.0591.
For `UAUAAUU`, the 7-mer Z-score was -0.144.
`CAAUACC` has a 7-mer Z-score of -0.132.

Block 3
Target: Sal-like protein 4, full length isoform A (SALL4, Homo sapiens, UniProt Q9UJQ4, residues 1-1053)
Chain of UniProt Q9UJQ4 (whole entry, looked up): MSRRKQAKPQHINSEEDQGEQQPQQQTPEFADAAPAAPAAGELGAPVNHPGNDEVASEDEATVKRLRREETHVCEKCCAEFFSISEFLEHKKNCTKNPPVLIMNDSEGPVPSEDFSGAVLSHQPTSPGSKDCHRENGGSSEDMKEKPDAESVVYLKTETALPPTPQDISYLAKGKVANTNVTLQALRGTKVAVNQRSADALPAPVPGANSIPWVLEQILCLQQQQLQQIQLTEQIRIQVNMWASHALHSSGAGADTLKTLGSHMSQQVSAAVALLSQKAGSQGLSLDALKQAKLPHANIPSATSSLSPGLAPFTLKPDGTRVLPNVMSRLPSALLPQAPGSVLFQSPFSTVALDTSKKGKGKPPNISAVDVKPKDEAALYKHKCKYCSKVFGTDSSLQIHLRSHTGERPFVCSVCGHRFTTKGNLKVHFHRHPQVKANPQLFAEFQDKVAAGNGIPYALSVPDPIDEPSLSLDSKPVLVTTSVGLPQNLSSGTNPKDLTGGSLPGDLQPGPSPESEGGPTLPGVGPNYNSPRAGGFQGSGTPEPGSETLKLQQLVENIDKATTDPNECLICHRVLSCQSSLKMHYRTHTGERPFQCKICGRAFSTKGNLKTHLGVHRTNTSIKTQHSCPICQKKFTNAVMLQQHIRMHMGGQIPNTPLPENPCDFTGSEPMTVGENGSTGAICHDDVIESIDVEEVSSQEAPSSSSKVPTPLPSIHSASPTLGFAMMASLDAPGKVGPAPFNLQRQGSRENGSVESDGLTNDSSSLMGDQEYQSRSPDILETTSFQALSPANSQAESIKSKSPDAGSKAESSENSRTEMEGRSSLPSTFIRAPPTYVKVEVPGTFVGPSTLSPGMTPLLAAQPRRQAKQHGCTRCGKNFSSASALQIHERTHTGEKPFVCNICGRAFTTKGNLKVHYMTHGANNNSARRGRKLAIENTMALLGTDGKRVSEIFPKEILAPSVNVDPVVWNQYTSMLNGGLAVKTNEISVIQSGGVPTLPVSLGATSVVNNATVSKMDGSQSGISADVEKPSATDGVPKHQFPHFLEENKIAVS
Method: universal PBM
Molecule type: double-stranded DNA, one strand shown
Matrix: in vitro
Concentration: 600 nM
Notes: 8-mer, flanks averaged, mean of replicates
Reading: higher = stronger binding
For `CTTTTCTA`, the E-score was 0.106.
`AGAGGGAG` gave an E-score of -0.112.
The E-score of `GTCAGCGA` is reported as -0.282.

Further values, each from its own experiment
For `PhoQ, residues 284 288 289 292 302 303 TAVSDG`, the fold induction was 2.97 (PhoP, residues 12 14 15 18 19 LHSVQ (Escherichia coli, UniProt P23836); Sort-seq, refers to: YFP reporter; E. coli; PhoQ-PhoP variant library, with: 10 µM Mg2+; baseline: high Mg2+ state, higher = stronger signaling).

Repeated from above (block 1):
`AATAATGT` has an E-score of 0.0272.
The E-score of `GCGGTTCA` is reported as 0.011.
